Experimental data from different studies.
A part holds a random share of what one study measured.

Series 1
Target: Sal-like protein 4, full length isoform A (SALL4, Homo sapiens, UniProt Q9UJQ4, residues 1-1053)
UniProt Q9UJQ4, sequence (whole entry, looked up): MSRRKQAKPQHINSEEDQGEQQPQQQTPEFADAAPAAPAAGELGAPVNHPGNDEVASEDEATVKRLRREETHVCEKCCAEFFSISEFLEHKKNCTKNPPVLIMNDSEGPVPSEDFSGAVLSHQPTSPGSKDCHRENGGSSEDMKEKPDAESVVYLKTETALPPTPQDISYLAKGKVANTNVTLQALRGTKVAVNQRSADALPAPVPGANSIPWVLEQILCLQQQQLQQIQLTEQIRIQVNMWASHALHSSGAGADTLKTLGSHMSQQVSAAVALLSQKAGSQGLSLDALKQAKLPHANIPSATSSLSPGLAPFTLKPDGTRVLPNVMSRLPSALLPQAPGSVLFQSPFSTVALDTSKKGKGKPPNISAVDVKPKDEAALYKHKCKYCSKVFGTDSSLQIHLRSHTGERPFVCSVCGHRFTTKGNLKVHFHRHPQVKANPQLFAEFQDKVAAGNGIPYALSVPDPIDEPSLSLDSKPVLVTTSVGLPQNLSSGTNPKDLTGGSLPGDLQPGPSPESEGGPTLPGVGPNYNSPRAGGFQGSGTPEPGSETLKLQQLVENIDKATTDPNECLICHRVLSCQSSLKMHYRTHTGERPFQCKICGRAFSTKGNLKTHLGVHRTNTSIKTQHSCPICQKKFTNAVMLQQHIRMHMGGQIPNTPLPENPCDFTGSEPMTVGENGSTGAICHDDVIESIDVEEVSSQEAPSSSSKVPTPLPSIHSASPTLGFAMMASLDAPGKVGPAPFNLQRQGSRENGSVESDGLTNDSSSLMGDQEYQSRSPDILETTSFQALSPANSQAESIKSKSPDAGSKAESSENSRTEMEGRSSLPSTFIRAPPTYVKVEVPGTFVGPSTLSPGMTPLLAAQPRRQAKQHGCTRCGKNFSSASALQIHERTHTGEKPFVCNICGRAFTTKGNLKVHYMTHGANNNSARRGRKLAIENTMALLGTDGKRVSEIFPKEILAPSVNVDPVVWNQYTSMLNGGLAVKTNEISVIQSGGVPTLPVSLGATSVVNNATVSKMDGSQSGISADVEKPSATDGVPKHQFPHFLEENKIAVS
Method: universal PBM
Form: double-stranded DNA, one strand shown
Medium: in vitro
Concentration: 600 nM
Notes: 8-mer, flanks averaged, mean of replicates
Reading: higher = stronger binding
Endpoint: E-score
AAGGTGGC: -0.261
GAGCTAAA: -0.0469
ATGCAAAC: 0.0877
TCCCATCA: 0.0287
GCTCAGGA: -0.0422
CTCCCCCA: -0.17
CCCCACAA: -0.12
AAATGGAC: 0.167
GCGGGGAA: -0.0657
AACTCTCT: -0.0463
ATATGGGG: -0.0722
CTTAGAGC: -0.0272
CAAGTCGA: 0.0645
TACCCAAA: 0.035
CCTTTCGA: -0.0204
GCCTAAGC: -0.201
ATGTGGTA: 0.159
GTATCAAC: 0.0565
ACACCGAT: -0.135
ACACGACA: 0.112
CGACGGGA: -0.218
ACACCAGC: -0.288
GCCAACGA: -0.0726
AATACACG: 0.137
ATCTGAAT: 0.138

Series 2
Target: RING finger protein unkempt homolog, zinc fingers 1-6, SBP tag (UNK, Homo sapiens, UniProt Q9C0B0, residues 30-357)
UniProt Q9C0B0, sequence (30-357, looked up): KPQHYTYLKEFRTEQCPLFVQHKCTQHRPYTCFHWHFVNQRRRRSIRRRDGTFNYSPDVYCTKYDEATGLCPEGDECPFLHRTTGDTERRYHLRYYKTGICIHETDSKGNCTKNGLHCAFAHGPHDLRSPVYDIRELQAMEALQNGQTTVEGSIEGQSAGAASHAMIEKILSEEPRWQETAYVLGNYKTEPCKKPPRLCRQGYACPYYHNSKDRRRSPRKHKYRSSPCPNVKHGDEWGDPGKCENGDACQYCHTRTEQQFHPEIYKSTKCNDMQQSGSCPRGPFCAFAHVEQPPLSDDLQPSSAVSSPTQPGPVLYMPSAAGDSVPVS
Method: RNA Bind-n-Seq
Form: RNA
Medium: in vitro
Concentration: 100 nM
Notes: RNA with constant flanks, vertebrate orthologous sites, ends assumed
Relative to: input RNA pool
Reading: higher = stronger binding
Endpoint: bound/input enrichment
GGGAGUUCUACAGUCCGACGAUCAUCCCAGUUUGUAUGCACAUUAUUCACAUUCCUAUCUGUUGUGUUUGCAGAAAUGACAUUUUACCCUUUUCUAAGGGUUACUUUACAAUUUUCAUAUUAUUUGGUUGCAUGAAGUUGCCCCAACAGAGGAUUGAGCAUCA: 0.461 ratio
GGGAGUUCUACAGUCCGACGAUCUAUUUGAGUUAGUUUUUCAUGUUUUCUGUAAAUAAUGGAUAAUCUUUUUAAAGUUUAUUUAAGUGCUGUUUUAACAACGAGGGCAGACUAUAAAUGUACUUGCUGAACUCAUUCAUUUUUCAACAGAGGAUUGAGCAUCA: 0.607 ratio
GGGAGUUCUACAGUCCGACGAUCUGCAUUAUUUGACCAGAGUUGAAGUGACAGAGUUUGAAGAUAUUAAAUCAGGUUACAGAAUAGAUUUUUAUUUUGAUGAAAACCCUUACUUCGAAAAUAAAGUUCUCUCCAAAGAAUUUCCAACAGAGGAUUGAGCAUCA: 0.296 ratio
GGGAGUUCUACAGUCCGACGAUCUUAAAGCCAUUUUUUCAUGUUUCCUGUAAAUAAUGGAUAAUCAUUUUUUAUUUUAUUUUUAAGUGCUGUUUUAACAACGUGGAUAGACUGUAAAUGUACUUGCUGAAUUCAUUCGUUUUUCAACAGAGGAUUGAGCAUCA: 0.686 ratio
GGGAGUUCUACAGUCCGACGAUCCAAUUCAAUGGUUGAGGGUUCAGAACUCAAAAAGGUUCGCUCCAACUCUAGGAUUUACCAUAGGUAUUUUUUAUUGGAUGCUGACAUGCAGAGCCUGAGGUGGGAACCAUCUAAGAAGGACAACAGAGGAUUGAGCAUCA: 0.271 ratio
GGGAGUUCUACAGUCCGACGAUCUGGGUUACUCCUAUUAUUAUCAAGUAGCUGGAAUUGUGAAGGUCGGAGUAGUUAGAUCUUUAGCUUUUAUUCCUUUUUUUUUUGUAUUACUAUCCAUGUGUAUAAAUUAUUGAUCAUGUUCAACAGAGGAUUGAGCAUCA: 3.78 ratio
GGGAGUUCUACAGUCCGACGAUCUGAGCAUACAUAUACAAUGUGUAUCAAAUGCUGGUUGUAAAAUUAAACCAUCAUCUAGAAUAGAGUUAAUUUGUUUUAAUCAAGCUACAAAUAGGUUUUCUUAAACCAGAGAUGCACUGCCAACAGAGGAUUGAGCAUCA: 0.436 ratio
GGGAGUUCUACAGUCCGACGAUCCCAACCUCUACAGUGUCCCUCGUACAGGGACAUAUUUCAUACCAUCCCGAGGACCUGCACUUAAAACGUUUUUUUAAUUGUUAUACGGGAAGAUAUGUGUCUUUAAAACACCAUCUCGAACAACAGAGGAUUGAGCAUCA: 0.284 ratio
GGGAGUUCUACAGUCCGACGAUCAACAUAUGUAGAAAAACCAGUUUCACUGAACCCAUUGUCAAGUUUUCUCCUAAAAUUUUAUUUGGACUUCUUUUGUUUUAUACAAGUUUGCUGUGUUUGUCAUUAUUAGUCCACAAUUAACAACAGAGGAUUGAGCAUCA: 0.435 ratio
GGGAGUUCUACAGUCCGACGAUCAGAAAAUUUUAACCAAGAAUCUGAAAGUAGAAAUACAGGACCAUGGUUAUCUUCCUCACUUAGAAAUAGAUGCACACCUUUGUUCUCUAGAAGGAGGCGAGAGGGAAGAGAUGAAUCUUCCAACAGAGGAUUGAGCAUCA: 0.782 ratio
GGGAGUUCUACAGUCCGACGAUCUUGGAACCAGUUCUCCAAAUAGAAAUGGUACUAAAAAAAAUAAGCAAAAUGAUAUUUGUGUGGAAAAAACAGAAGUUAAAUCAUGUAAAGCAAAUACUGUGAAUAUUCCAGGCCCUAAAGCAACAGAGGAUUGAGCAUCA: 0.316 ratio

Series 3
Target: RNA binding protein fox-1 homolog 2, RRM domain, GST-SBP tag (RBFOX2, Homo sapiens, UniProt O43251-10, residues 100-194)
Method: RNA Bind-n-Seq
Form: RNA
Medium: in vitro
Concentration: 365 nM
Notes: natural RNA segment, single round, ends assumed
Relative to: no-protein control
Reading: higher = stronger binding
Endpoint: RBNS enrichment (R)
Construct (chain): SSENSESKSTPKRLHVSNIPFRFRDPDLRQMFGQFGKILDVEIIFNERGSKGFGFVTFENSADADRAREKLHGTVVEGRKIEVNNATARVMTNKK
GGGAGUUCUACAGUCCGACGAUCUUAGAUUAUAUAUUCCGCACUCAAGGAGUAACCAGGUCGUCCAAGCAAAAACAAAUGGGAAAAUGUCUUAAAAAAUCCUGGGUGGACUUUUGAAAAGCUUUUUUUUUUUUUGGAAUUCUCGGGUGCCAA: 0.738
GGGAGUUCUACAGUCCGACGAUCAGACUUUGAAUCAUCGCUAUAUCAAGUAUCUAAAAUUUGGGAGGGUGAAUCAGUACACUGUGACCAAGGUCCUCAAAUUGGAAUUUGAACAACAAUGUAAAACCUGUUCUUGGAAUUCUCGGGUGCCAA: 0.298
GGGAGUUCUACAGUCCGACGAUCCAAGGGCGCAAGAGUAGCGGUCCAAGCCUGCAACUCAUCUUUCAUUAAAGGCUUCUCUCUCACCAGCCAUCCGAUGUCUGUCUCCUCUGGGAUCUGGAAGUGGGUGGAGAUGGAAUUCUCGGGUGCCAA: 0.382
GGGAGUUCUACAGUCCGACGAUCUCUGUAACCAACCUUUAUCUGGCAUCAUAAUUGCAGCACAAUAAUGAUUUGCAUGAUAUCUUGAAACUGGGGGAAGGGGGCAUGCCAAGUUGGGCAUCACUUCGUCUUAGUGGAAUUCUCGGGUGCCAA: 1.01
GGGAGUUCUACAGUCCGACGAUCCUAGGUAUCUUCUAGAGCAGUGAUUCUCAACCUUGCUAAUGCUGUGACCCUUUAAUACAUACAGUUCCUCAUGGUGUGGUGACCCCCCCCAACCAUAAAAUUAUCUUAUUUGGAAUUCUCGGGUGCCAA: 0.727
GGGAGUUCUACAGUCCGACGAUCUCACCAUGUCAAUUCCCCUUUUCUUAGCAACCAGUUCAAUGUUCUGCCCCUUCAAUCUUACCUUUUCCUACAAUGCCAUGUAAGUGGGGUCAGCCAUGAUGUCAUGUGUGUGGAAUUCUCGGGUGCCAA: 0.502
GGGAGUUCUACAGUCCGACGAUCACUCUUCAUCCUGGAAGUGGGAACUGGAGUCCCACCCACAGUGCAUUCAGAAAGCAUGCUGUGUGGGGGCUGCUUCUCAGGAGGCCAGGCCCUUCUGAGCGGAACCGUCCUGGAAUUCUCGGGUGCCAA: 1.64
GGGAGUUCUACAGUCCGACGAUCGCUGAGCUGCAGUGAUGACGCUACACACCAACCAUGGCUUUAGCAGCAGCCCUGGUUCCUUCCCAGUCAUACUUAUGGAAGAUGUGCCCUUCCAGAGGAAUAAGUUUGUUUGGAAUUCUCGGGUGCCAA: 0.63
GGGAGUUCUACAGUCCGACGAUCUGUUAUUAGAGAUUACCUCCUGAGAAAAAAGGUUCCGCUUGGAGCAGAGGGGCUGAAUAGCAGAAGGUUGCACCUCCCCCAACCUUAGAUGUUCUAAGUCUUUCCAUUGGUGGAAUUCUCGGGUGCCAA: 0.502
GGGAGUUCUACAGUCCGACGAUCGUUUCCUAACUGCAUGUGAUAGACUUGGACAUUUGGAGAAUAUUUUGUACAUGAAUGAUUCAAAAUCCAACCCACCAAAUGGUUACCCUGUAUUCCAGAAACUCACUUGAUGGAAUUCUCGGGUGCCAA: 49.7
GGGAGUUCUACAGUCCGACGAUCUUCUUUUGUCCAUGCUCUCAUUGCUGAUUUGUUCUUGCAGGACUUAGAGCACUUUGUUAAUGUUCUUCCAUUCACUCCAACAGCGUCCUCAGAAAGAGACAGAAUAAAAAUGGAAUUCUCGGGUGCCAA: 0.83
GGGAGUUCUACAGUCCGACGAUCUGUGUGACCCCUACCAGAACAGAGACUUUCCUCCUCUUGAAGUUCUCUGAGGGGCGCCAUCUUGACCUUGUGGUUCUCUCUGCAUCUUGACCUCUGUCUUGACAGUGCCCUGGAAUUCUCGGGUGCCAA: 2.2

Series 4
Target: Prothrombin, mature alpha-thrombin (F2, Homo sapiens, UniProt P00734)
Method: aptamer microarray, sandwich
Form: DNA with 2'F-ANA
Medium: in vitro
Concentration: 200 nM
Notes: whole 15-mer aptamer, many near background
Together with: Cy3 exosite-II aptamer, 400 nM
Reading: higher = stronger binding
Endpoint: mean fluorescence intensity
Strand: GGTTGGTGTGGTTGG
2'F-ANA at 1 2 3 6 7 11: 165 a.u.
2'F-ANA at 1 6 7 8 10 12 14: 53.8 a.u.
2'F-ANA at 1 2 3 6 9 11 12 13: 236 a.u.
2'F-ANA at 2 6 7 11 13 15: 271 a.u.
2'F-ANA at 2 3 5 6 11 13 14 15: 50.1 a.u.
2'F-ANA at 5 9 11 13 14: 88.1 a.u.
2'F-ANA at 1 2 3 6 7 8 11 12 13: 341 a.u.
2'F-ANA at 1 3 4 5 7 9 10 11: 46.4 a.u.
2'F-ANA at 3 6 7 8 10 13 14: 364 a.u.
2'F-ANA at 1 2 3 5 6 12 15: 109 a.u.
2'F-ANA at 2 4 6 7 9 14: 81.9 a.u.
2'F-ANA at 2 6 8 10 12: 167 a.u.
2'F-ANA at 5 6 13 15: 54.1 a.u.
2'F-ANA at 1 3 4 5 8 9 10 12 13 14 15: 65.7 a.u.
2'F-ANA at 1 3 5 7 11 14 15: 46.5 a.u.
2'F-ANA at 1 2 4 7 10 12 13: 111 a.u.
2'F-ANA at 2 4 5 6 8 9 11 12 15: 117 a.u.
2'F-ANA at 4 6 7 10 11 12 14 15: 78.5 a.u.
2'F-ANA at 1 3 4 12 13 15: 272 a.u.
2'F-ANA at 3 4 5 8 10 11 13 14: 68 a.u.
2'F-ANA at 1 4 5 6 8 11 14 15: 51.4 a.u.
2'F-ANA at 2 3 4 7 8: 881 a.u.
2'F-ANA at 6 7 8 10 12 14 15: 114 a.u.
2'F-ANA at 1 4 5 7 8 11 13 14 15: 52.5 a.u.
2'F-ANA at 6 9 10 12 13: 174 a.u.

A few entries again (series 1):
AACTCTCT: -0.0463
CTCCCCCA: -0.17
ATGTGGTA: 0.159
GCGGGGAA: -0.0657
GCCTAAGC: -0.201
ACACCAGC: -0.288
CCTTTCGA: -0.0204
GCTCAGGA: -0.0422
GAGCTAAA: -0.0469
CAAGTCGA: 0.0645
ACACCGAT: -0.135
